# Measured values collected from several papers.
# Numbered parts are unrelated; each lists some results of a single study. Positions count from the first letter of the parent shown.

# Study 1 — method: RNA Bind-n-Seq; form: RNA; medium: in vitro; concentration: 200 nM; setting: whole 134-nt RNA, ends assumed; with: 150 mM LiCl; reference: input library; reading: higher = stronger binding; each molecule: 7-deaza-guanosine replaces G
# Target: Fragile X messenger ribonucleoprotein 1, C-terminal low-complexity region (Fmr1, Mus musculus, UniProt P35922)
Oligonucleotide,log2 enrichment
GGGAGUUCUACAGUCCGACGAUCCUCAAGUCCUGUGCUACACAUCGUAUGUACCGAAUCGGUUUUUGGUGGAAAGGAAAGUAUUAUGUUACGCCGUUCGGAUCUGCACUUCCAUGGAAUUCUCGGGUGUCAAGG,0.0836
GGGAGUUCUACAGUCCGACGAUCUUGGACUUGGAGCAUCUGCUCAGUGAGUCUCCAGAAGGAAGUCCCUUCCGAGAUAUGGAUGAUGGAAGUGAUUCCCUUGGGGUGGGAUUGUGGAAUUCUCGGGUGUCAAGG,-3.28
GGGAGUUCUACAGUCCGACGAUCCCUGUGCUACACAUCGUAUGUACCGAAUCGGGAAAAAAGGGAAAAAAGGGGAAAAAAGGGGAAAGUAUUAUGUUACGCCGUUCGGAUCUGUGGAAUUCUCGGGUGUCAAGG,0.504
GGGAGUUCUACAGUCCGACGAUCUGGCCCUGGUGGCAUGCGGGGAGGAAGAGGUGGCCUCAUGGAUCGUGGUGGUCCCGGUGGAAUGUGCAGAGGUGGCCGUGGUGGAGACAGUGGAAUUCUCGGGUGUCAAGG,0.00542
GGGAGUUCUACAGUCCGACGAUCAGUCCUGUGCUACACAUCGUAUGUACCGAAUCGGGUUUGGGUUUUUUUGGGAAAGGGAAAGUAUUAUGUUACGCCGUUCGGAUCUGCACUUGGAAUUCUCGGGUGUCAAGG,-1.14
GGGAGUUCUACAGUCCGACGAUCUAACUUUAGAGGAGGAUCUGAUGGAUAUGGCAGUGGACGUGGAUUAGGGGAUGGCUAUAAUGGGUAUGGAGGAGGACCUGGAGGUGGCAAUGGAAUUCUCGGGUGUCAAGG,0.381
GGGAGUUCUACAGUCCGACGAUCUGGGAGGUGGAUUUUGUUUAUUUUUUUAGCUCAUUUCCAGGGGUGGGAAUUUUUUUUUAAUAUGUGUCAAGAAUAAAGUUGUUUUUGAAAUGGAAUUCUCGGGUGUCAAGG,-0.0809
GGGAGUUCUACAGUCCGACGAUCAGUCCUGUGCUACACAUCGUAUGUACCGAAUCGGGGUUUUUGGGGAAAGGGGUGGGGAAAGUAUUAUGUUACGCCGUUCGGAUCUGCACUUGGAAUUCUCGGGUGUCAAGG,-1.11

# Study 2 — method: RNA Bind-n-Seq; form: RNA; medium: in vitro; concentration: 365 nM; reference: no-protein control; reading: higher = stronger binding
# Target: RNA binding protein fox-1 homolog 2, RRM domain, GST-SBP tag (RBFOX2, Homo sapiens, UniProt O43251-10, residues 100-194)
# Setting: natural RNA segment, single round, ends assumed
# Construct (chain): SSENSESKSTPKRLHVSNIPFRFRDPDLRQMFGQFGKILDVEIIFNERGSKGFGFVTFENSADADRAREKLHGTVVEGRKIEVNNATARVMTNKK
Oligonucleotide,RBNS enrichment (R)
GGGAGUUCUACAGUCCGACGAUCGGAAGGAAGAAAAAGCCAGCAAUCAACCAUCAUGUGUUUCUGUAGAAUCAGAUGUAAUAGGAAACAUAGUUUCAGAUUGCUUCUGACAAAGUCUGUGCCACAUUCCUCACUGGAAUUCUCGGGUGCCAA,0.339
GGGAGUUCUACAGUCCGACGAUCUAGGACACUACAAAACAAUCAAAUAAUUCUUUUCUGUAAUCCAAUAUGCAGCAAGCAAGGGUGACCUCCAGUGGCCCACUCAAGUCCAUGAGCCAUUAUCUAGGAUACUUUGGAAUUCUCGGGUGCCAA,0.357
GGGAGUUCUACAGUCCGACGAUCUUGCUCUGUGUCUGACCCAAUAUUGUUGAAAAAUGAAAUAAAGCAUUAUGCAAAAGGUGUUACAUCUAAUGUGGCUACAGUCUGAGUUUCUUUUCUCUCUAGUUACUGCCUGGAAUUCUCGGGUGCCAA,0.509
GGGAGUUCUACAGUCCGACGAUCGUUAACUGUUGACUCCUCAAGGGUUUUGAUCAAUAUCACCCAAACCUUUUCCACUUGACAUGCUAGAAUUUUGGUGUGUGUGUGUGUGUGUGUGUAUUUGUUCACGAGCAUGGAAUUCUCGGGUGCCAA,1.5
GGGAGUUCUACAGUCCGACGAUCUAAUUGCCUAUAAGUUUGCUGUUUCAGAGGCUAGCCCAAAGGCAUCAAAUUUAAUAAAGUUAAACAAAUUGAUUUACUUCAGAGCAAAUAUGAUCCUAUUAAAAUAAUAUUGGAAUUCUCGGGUGCCAA,0.332
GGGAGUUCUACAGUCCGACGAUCGACUGUUGUCUGUGCCAACCUAAGAGAUUCCCAGUGCUGGGACCACUGCUUUUUUUCCUGAUGUGGGGUGAGGGUCUAUUCUGUUUCCCAUUCCUGCUGCAUCCUGCCUGUGGAAUUCUCGGGUGCCAA,2.2
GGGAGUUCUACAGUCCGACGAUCCUCCAGCUCCUGGGAUCCAGGAGUCCAUCCCCAGUCCCCUGGGAUCCUAGUGUCCCUCCCUCCUGCAUCUCCUGGUCUCCUUCUCCAGGACCUUCCCAGCUUCCCCUCAGUGGAAUUCUCGGGUGCCAA,0.833
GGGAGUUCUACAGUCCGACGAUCGCGAGCUUUUGAAAGCAACAGGGCCUAGCCUGCAAACAGUUAUCUUGGGAAACUGUCCAGCCACGUUUCCAUUACUCGGAGCUCUCGGUUACCUUCAGACAUGGUGCCGUUGGAAUUCUCGGGUGCCAA,1.16

# Study 3 — method: protein binding microarray; form: double-stranded DNA, one strand shown; medium: in vitro; concentration: not given; reference: not given; reading: higher = stronger binding
# Target: Histone acetyltransferase KAT6A, winged helix 2, GST fusion (KAT6A, Homo sapiens, UniProt Q92794, residues 85-181)
# Setting: 8-mer, flanks averaged, mean of 2 arrays, mostly near background
# Residues (chain): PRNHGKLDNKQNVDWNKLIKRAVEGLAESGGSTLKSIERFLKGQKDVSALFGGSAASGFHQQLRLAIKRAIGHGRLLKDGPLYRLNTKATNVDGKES
Oligonucleotide,E-score
ATCAGTAG,-0.0124
CTGGAAAC,-0.0377
TCACACAA,0.0634
AGACTCTA,-0.261
CTAAACCC,-0.147
AAAGTCTG,-0.198
TAGGCAAA,0.00123
CGATGACG,0.0279
TAGAGAAA,-0.065
GTGGGATA,0.0118
GGAGCTGA,-0.0391
TAACGATA,-0.104
TGGGTACA,0.034
CACGTAAA,-0.191
AAACGCCT,-0.188
CCATCGTA,-0.153
CCTGGTCC,0.0631
CGCCGCAA,0.14

# Study 4 — method: universal PBM; form: double-stranded DNA, one strand shown; medium: in vitro; concentration: not given; reading: higher = stronger binding
# Target: Sal-like protein 4, full length isoform B (SALL4, Homo sapiens, UniProt Q9UJQ4-2, residues 1-616)
# Setting: 8-mer, flanks averaged, mean of replicates
# Residues (chain): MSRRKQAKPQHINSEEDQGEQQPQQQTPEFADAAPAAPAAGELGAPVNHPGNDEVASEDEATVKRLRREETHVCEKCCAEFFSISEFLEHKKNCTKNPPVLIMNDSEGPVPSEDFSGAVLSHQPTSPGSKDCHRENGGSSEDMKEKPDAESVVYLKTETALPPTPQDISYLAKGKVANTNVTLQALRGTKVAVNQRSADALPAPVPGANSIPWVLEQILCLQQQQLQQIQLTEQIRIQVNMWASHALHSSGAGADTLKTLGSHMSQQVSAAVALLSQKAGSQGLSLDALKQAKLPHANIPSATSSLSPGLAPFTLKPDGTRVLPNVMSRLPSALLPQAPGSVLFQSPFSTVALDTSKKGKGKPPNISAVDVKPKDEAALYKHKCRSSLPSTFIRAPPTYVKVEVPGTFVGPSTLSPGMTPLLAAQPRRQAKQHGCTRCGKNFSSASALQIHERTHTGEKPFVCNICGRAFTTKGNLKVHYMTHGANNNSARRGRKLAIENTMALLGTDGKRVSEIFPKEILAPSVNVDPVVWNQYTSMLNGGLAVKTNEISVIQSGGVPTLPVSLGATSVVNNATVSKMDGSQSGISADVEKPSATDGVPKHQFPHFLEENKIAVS
Oligonucleotide,E-score
CCGAAATC,0.0272
CAAGTGCC,-0.235
GAACACAA,0.0853
CACTTCCA,-0.0381
CGGTCGTC,-0.256
ACCAGTGG,-0.18
GAACTGCA,-0.0425
GCGAGACA,-0.301
CACCTATA,0.213
AAGGTAGT,0.137
CCATATCC,0.097
ACAAGAGC,0.0694
CCTTCCCG,-0.252
CGATTTGA,0.0669
ATGGGCAA,0.0372
CCTTGTCG,0.00631
CGTCAGAG,-0.141
GGCTCGTA,-0.0622
ACCTATCA,0.0772
CGCAGTAA,0.0939
CAGTACTC,0.00391
ACTTCAAG,0.158
ACTTACGA,0.214

# Study 5 — target: CCNB2, cyclin fold, Cln2 fusion (human); method: yeast growth competition, sequencing; medium: yeast; setting: strong parent motif; reference: not given; reading: higher = stronger binding
# Starting sequence: PKMYT1 docking peptide (human); SFEPRNLLSLFED
Change,normalised enrichment score
SFEPRNLLSLYED [F11Y],0.0396
SFEPRNLLSLFER [D13R],0.357
SFEPRNLFSLFED [L8F],0.643
SFEPRNLLCLFED [S9C],0.823
CFEPRNLLSLFED [S1C],1.59
SFEPKNLLSLLED [R5K F11L],-0.251
SFEPRNLLNLFED [S9N],0.837
YFEPRNLLSLFED [S1Y],1.45
SFEPRNLKSLFED [L8K],-0.164
SMEPRNLLSLFED [F2M],1.42
SFEPRSLLSLFED [N6S],0.0963
SFGPRNLLSLFED [E3G],1.18
SFEPRNYLSLFED [L7Y],-0.503
SFEPRNLSSLFED [L8S],0.448
SFEPRTLLSLFED [N6T],-0.565
SFEPRNLLSLFID [E12I],0.357
SFEQRNLLSLFED [P4Q],0.496
PFEPRNLLSLFED [S1P],1.16
SFEPGNLLSLFED [R5G],-0.289
SFEPRNLCSLFED [L8C],0.782
SFEPRNVLSLFED [L7V],-0.802
SFEPRNLLSLFEQ [D13Q],1.1

# A few entries again (study 4):
Oligonucleotide,E-score
CGTCAGAG,-0.141
ACTTCAAG,0.158
ACTTACGA,0.214
CCTTGTCG,0.00631
ACAAGAGC,0.0694
CCTTCCCG,-0.252
CACCTATA,0.213
CACTTCCA,-0.0381
GAACACAA,0.0853
GGCTCGTA,-0.0622
